Measurements gathered from unrelated publications.
Compare with care: the assays were run in different laboratories.
UniProt Q9UIA9, sequence (whole entry, looked up): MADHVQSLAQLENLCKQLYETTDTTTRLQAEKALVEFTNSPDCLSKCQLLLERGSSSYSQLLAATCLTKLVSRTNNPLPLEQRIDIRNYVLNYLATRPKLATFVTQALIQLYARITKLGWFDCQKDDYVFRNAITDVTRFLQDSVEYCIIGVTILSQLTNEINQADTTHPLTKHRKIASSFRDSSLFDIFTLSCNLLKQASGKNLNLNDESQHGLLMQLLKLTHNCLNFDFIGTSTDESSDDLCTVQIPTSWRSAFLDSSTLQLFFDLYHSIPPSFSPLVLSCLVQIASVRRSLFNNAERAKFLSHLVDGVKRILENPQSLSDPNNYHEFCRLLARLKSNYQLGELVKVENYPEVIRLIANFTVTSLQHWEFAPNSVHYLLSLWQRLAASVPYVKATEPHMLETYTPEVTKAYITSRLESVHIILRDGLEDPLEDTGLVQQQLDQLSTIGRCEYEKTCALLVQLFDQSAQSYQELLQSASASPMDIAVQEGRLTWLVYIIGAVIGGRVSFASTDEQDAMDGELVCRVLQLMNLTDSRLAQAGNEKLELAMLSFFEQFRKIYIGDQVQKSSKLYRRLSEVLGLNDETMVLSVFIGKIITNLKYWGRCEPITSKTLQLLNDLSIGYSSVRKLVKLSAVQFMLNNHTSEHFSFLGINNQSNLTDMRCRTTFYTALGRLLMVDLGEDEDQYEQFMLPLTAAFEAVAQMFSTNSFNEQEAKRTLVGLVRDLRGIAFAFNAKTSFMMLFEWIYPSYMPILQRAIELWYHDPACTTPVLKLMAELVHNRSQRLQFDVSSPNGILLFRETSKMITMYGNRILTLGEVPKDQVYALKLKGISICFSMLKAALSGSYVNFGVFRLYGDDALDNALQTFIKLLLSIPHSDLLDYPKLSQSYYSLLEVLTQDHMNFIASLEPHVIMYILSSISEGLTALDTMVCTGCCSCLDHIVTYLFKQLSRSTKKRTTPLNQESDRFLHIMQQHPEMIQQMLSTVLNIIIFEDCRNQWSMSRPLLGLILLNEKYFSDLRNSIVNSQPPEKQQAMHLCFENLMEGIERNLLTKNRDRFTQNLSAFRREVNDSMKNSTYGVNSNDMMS

Compound	tested on	test	test system	conditions	scale	endpoint	value
CC1(C)SC2C(NC(=O)C(NC(=O)C3=C(O)C4CCCN4C3=O)c3ccccc3)C(=O)N2C1C(=O)O (stereo not shown)	Escherichia coli	broth microdilution	Keio mutant JW0146-2	18 h, ferric hydroxamate uptake gene		MIC	25 µg/mL
O=C(O)CN(CC(=O)O)CC(=O)O	Providencia stuartii		NDM-1 producer	32 µg/mL, MIC of meropenem, with: meropenem		MIC	0.25 µg/mL
CC(C)C1NC(=O)C(C(=O)NC(C(=O)NC2C(=O)N3C2SC(C)(C)C3C(=O)O)c2ccccc2)=C1O (stereo not shown)	Escherichia coli	broth microdilution	isolate IU 356 A, KPC-3, VIM-1, TEM	with: clavulanic acid 6 µg/mL		MIC	> 200 µg/mL
CC[C@H](C)[C@@H]1NC(=O)[C@@H]2CCCN2C(=O)[C@H](CC(C)C)NC(=O)[C@H](CC(C)C)NC(=O)CNC(=O)[C@@H](NC(=O)[C@@H](NC(=O)[C@H](CC(=O)O)NC(=O)CNC(=O)[C@@H](NC(=O)[C@H](C)NC(=O)CNC(=O)[C@H](CCCCN)NC(=O)[C@H](CC(C)C)NC(=O)[C@H](CC(C)C)NC(=O)[C@H](CCCCN)NC(=O)CNC(=O)[C@@H](NC(=O)[C@@H](N)CC(C)C)C(C)C)C(C)C)C(C)C)CSSC[C@@H](C(=O)O)NC1=O		RNA-seq, refers to: Bst1	mouse, traumatic brain injury model, frontal cortex and hippocampus	dose not given	reference: TBI alone	log2 fold change	-3.08
CC1(C)SC2C(NC(=O)C(NC(=O)C3=C(O)C(Cc4ccc(F)cc4)NC3=O)c3ccccc3)C(=O)N2C1C(=O)O (stereo not shown)	Escherichia coli	broth microdilution	Keio mutant JW0146-2	18 h, ferric hydroxamate uptake gene		MIC	25 µg/mL
N=C(N)NCCC[C@H](NC(=O)CN)C(=O)N[C@@H](Cc1c[nH]c2ccccc12)C(=O)N[C@@H](CCCNC(=N)N)C(=O)N[C@@H](Cc1c[nH]c2ccccc12)C(=O)N[C@@H](Cc1c[nH]c2ccccc12)C(=O)N[C@@H](Cc1c[nH]c2ccccc12)C(=O)N[C@@H](CCCNC(=N)N)C(=O)N[C@@H](Cc1c[nH]c2ccccc12)C(=O)N[C@@H](CCCNC(=N)N)C(=O)N[C@@H](Cc1ccccc1)C(N)=O	Candida albicans	broth microdilution	CGMCC 2.209, RPMI 1640-MOPS	48 h, 30 °C, with: FeCl3 4 µM		MIC	4 µM
CC[C@H](C)[C@H](NC(=O)[C@H](CCCCN)NC(=O)[C@@H](NC(=O)[C@H](Cc1ccc(O)cc1)NC(=O)[C@H](CCCCN)NC(=O)[C@H](CCCCN)NC(=O)CNC(=O)[C@H](CCCCN)NC(=O)[C@@H](NC(=O)[C@H](C)NC(=O)[C@H](CC(C)C)NC(=O)[C@H](Cc1c[nH]c2ccccc12)NC(=O)CNC(=O)[C@@H](NC(=O)[C@H](Cc1ccccc1)NC(=O)[C@H](CCCCN)NC(=O)[C@H](CC(C)C)NC(=O)[C@H](Cc1ccccc1)NC(=O)[C@H](C)NC(=O)CNC(=O)[C@@H](N)CCSC)C(C)C)[C@@H](C)O)C(C)C)C(=O)N[C@@H](C)C(=O)N[C@@H](Cc1c[nH]c2ccccc12)C(=O)N[C@@H](CC(=O)O)C(=O)N[C@@H](Cc1c[nH]cn1)C(=O)N[C@@H](CCCCN)C(=O)NCC(=O)N[C@H](C(=O)N[C@H](C(=O)N[C@@H](CCSC)C(=O)N[C@@H](CCCCN)C(=O)N[C@@H](Cc1c[nH]c2ccccc12)C(=O)N[C@@H](CC(C)C)C(=O)N[C@@H](CC(N)=O)C(=O)N[C@@H](C)C(=O)NCC(=O)N[C@@H](CCC(N)=O)C(=O)N[C@H](C(=O)N[C@@H](Cc1ccccc1)C(=O)N[C@H](C(=O)N[C@@H](Cc1c[nH]c2ccccc12)C(=O)N[C@H](C(=O)N[C@@H](Cc1ccc(O)cc1)C(=O)N[C@@H](CCC(=O)O)C(=O)N[C@@H](CCC(N)=O)C(=O)N[C@H](C(=O)N[C@@H](CCCCN)C(=O)N[C@@H](CCCCN)C(=O)N[C@@H](CC(C)C)C(=O)N[C@@H](Cc1c[nH]c2ccccc12)C(=O)N[C@H](C(=O)O)[C@@H](C)O)[C@@H](C)CC)C(C)C)[C@@H](C)O)[C@@H](C)O)[C@@H](C)CC)[C@@H](C)O	Corynebacterium ulcerans			37 °C, non-formylated synthetic		MIC	31.3 µg/mL
CC1(C)SC2C(NC(=O)C(NC(=O)C3=C(O)C(Cc4ccco4)NC3=O)c3ccccc3)C(=O)N2C1C(=O)O (stereo not shown)	Escherichia coli	broth microdilution	ATCC 35218, low-level TEM-1	no clavulanic acid		MIC	> 200 µg/mL
CC[C@H](C)[C@H](NC(=O)[C@@H](NC(=O)[C@H](Cc1ccccc1)NC(=O)CNC(=O)[C@H](CCC(N)=O)NC(=O)[C@H](CCCCN)NC(=O)[C@H](C)N)C(C)C)C(=O)N[C@@H](Cc1ccc(O)cc1)C(=O)N[C@@H](CCCNC(=N)N)C(=O)N[C@H](C(=O)N[C@@H](CCCNC(=N)N)C(=O)N[C@H](C(=O)N[C@@H](CCCNC(=N)N)C(=O)N[C@@H](CCCNC(=N)N)C(=O)NCC(=O)N[C@@H](CC(N)=O)C(=O)N[C@@H](CCCNC(=N)N)C(=O)N[C@@H](CCCCN)C(N)=O)C(C)C)C(C)C	Salmonella typhimurium	broth dilution	SL1344			MIC	12.5 µM
CC1(C)SC2C(NC(=O)C(NC(=O)C3=C(O)C(Cc4ccc([N+](=O)[O-])cc4)NC3=O)c3ccccc3)C(=O)N2C1C(=O)O (stereo not shown)	Escherichia coli	broth microdilution	Keio mutant JW5086-3	18 h, ferrienterobactin permease gene		MIC	25 µg/mL
N=C(N)NCCC[C@H](NC(=O)[C@H](Cc1c[nH]c2ccccc12)NC(=O)[C@H](CCCNC(=N)N)NC(=O)[C@H](Cc1c[nH]c2ccccc12)NC(=O)[C@H](Cc1c[nH]c2ccccc12)NC(=O)[C@H](Cc1c[nH]c2ccccc12)NC(=O)[C@H](CCCNC(=N)N)NC(=O)[C@H](Cc1c[nH]c2ccccc12)NC(=O)[C@@H](N)CCCNC(=N)N)C(=O)N[C@@H](Cc1c[nH]c2ccccc12)C(N)=O	Candida albicans	broth microdilution	56452, RPMI 1640-MOPS	48 h, 30 °C		MIC	8 µM
CCCCCCCCCCCCCCNC(=O)CP(=O)(O)O	Streptococcus pneumoniae					MIC	200 µg/mL
N=C(N)c1ccc(OCc2cc(COc3ccc(C(=N)N)cc3)cc(-c3ccccc3)c2)cc1	Escherichia coli		mcr-1	20 h, compound alone		MIC	100 µg/mL
CN1CC(O)=C(C(=O)NC(C(=O)NC2C(=O)N3C2SC(C)(C)C3C(=O)O)c2ccccc2)C1=O (stereo not shown)	Escherichia coli	broth microdilution	isolate IU, CTX-M-14, TEM-1	with: clavulanic acid 6 µg/mL		MIC	> 200 µg/mL
CCCCCCCNC(=O)CP(=O)(O)O	Streptococcus pneumoniae					MIC	> 200 µg/mL
C[C@H]1CN(c2n[nH]c3nc(N[C@H]4CC[C@H](NS(=O)(=O)CCC(F)(F)F)CC4)ncc23)CCO1	Exportin-7 (Homo sapiens, UniProt Q9UIA9)	Kinobeads competition, refers to: XPO7		0.032 µM, unit not given	reference: vehicle	remaining binding	1.1
CC(=O)N1CCN(c2ccc(OCC3COC(Cn4ccnc4)(c4ccc(Cl)cc4Cl)O3)cc2)CC1 (stereo not shown)	Candida albicans	broth microdilution	56214, RPMI 1640-MOPS	48 h, 30 °C		MIC	64 µM
CN[C@H](CC(C)C)C(=O)N[C@H]1C(=O)N[C@@H](CC(N)=O)C(=O)N[C@H]2C(=O)N[C@H]3C(=O)N[C@H](C(=O)N[C@H](C(=O)O)c4cc(O)cc(O)c4-c4cc3ccc4O)[C@H](O)c3ccc(c(Cl)c3)Oc3cc2cc(c3O[C@@H]2O[C@H](CO)[C@@H](O)[C@H](O)[C@H]2O[C@H]2C[C@](C)(N)[C@H](O)[C@H](C)O2)Oc2ccc(cc2Cl)[C@H]1O	Clostridioides difficile	agar dilution anaerobic	3581	48 h		MIC	1 µg/mL
C[C@H](NC(=O)[C@H](CCCNC(=N)N)NC(=O)[C@H](Cc1c[nH]c2ccccc12)NC(=O)[C@H](CCCNC(=N)N)NC(=O)[C@H](Cc1c[nH]c2ccccc12)NC(=O)[C@H](Cc1c[nH]c2ccccc12)NC(=O)[C@H](Cc1c[nH]c2ccccc12)NC(=O)[C@H](CCCNC(=N)N)NC(=O)[C@H](Cc1c[nH]c2ccccc12)NC(=O)[C@@H](N)CCCNC(=N)N)C(N)=O	Candida albicans	broth microdilution	14936, RPMI 1640-MOPS	48 h, 30 °C		MIC	4 µM
N=C(N)c1ccc(OCc2cccc(COc3ccc(C(=N)N)cc3)c2)cc1	Escherichia coli		mcr-1	20 h, compound alone		MIC	> 200 µg/mL
CCCCCCCCCCCCCCCC(=O)NS(=O)(=O)OCCCC	Streptococcus pneumoniae					MIC	25 µg/mL
CC(C)C[C@H](NC(=O)[C@H](CCCCN)NC(=O)[C@H](CO)NC(=O)[C@H](CC(C)C)NC(=O)[C@H](CC(C)C)NC(=O)CNC(=O)[C@H](CC(C)C)NC(=O)[C@H](CCCCN)NC(=O)[C@H](CC(C)C)NC(=O)[C@H](CC(C)C)NC(=O)[C@H](CC(C)C)NC(=O)CNC(=O)[C@H](CO)NC(=O)[C@H](Cc1c[nH]c2ccccc12)NC(=O)[C@@H](N)CCCCN)C(N)=O	Candida glabrata	broth microdilution	ATCC 2001	44 h, 37 °C		MIC	> 100 µM
O=C(NN=Cc1ccc(O)c(Br)c1)c1cccc(Br)c1	Cryptococcus neoformans			compound alone, with: caspofungin		MIC	0.3 µg/mL
CC(C)(C)Oc1ccc(CC2NC(=O)C(C(=O)NC(C(=O)NC3C(=O)N4C3SC(C)(C)C4C(=O)O)c3ccccc3)=C2O)cc1 (stereo not shown)	Escherichia coli	broth microdilution	ATCC 35218, low-level TEM-1	with: clavulanic acid 6 µg/mL		MIC	100 µg/mL
CC[C@H](C)[C@H](NC(=O)CN)C(=O)NCC(=O)N[C@@H](C)C(=O)N[C@H](C(=O)N[C@@H](CC(C)C)C(=O)N[C@@H](CCCCN)C(=O)N[C@H](C(=O)N[C@@H](CC(C)C)C(=O)N[C@H](C(=O)N[C@H](C(=O)NCC(=O)N[C@@H](CC(C)C)C(=O)N1CCC[C@H]1C(=O)N[C@@H](C)C(=O)N[C@@H](CC(C)C)C(=O)N[C@H](C(=O)N[C@@H](CO)C(=O)N[C@@H](Cc1c[nH]c2ccccc12)C(=O)N[C@H](C(=O)N[C@@H](CCCCN)C(=O)N[C@@H](CCCNC(=N)N)C(=O)N[C@@H](CCCCN)C(=O)N[C@@H](CCCNC(=N)N)C(=O)N[C@@H](CCC(N)=O)C(=O)N[C@@H](CCC(N)=O)C(N)=O)[C@@H](C)CC)[C@@H](C)CC)[C@@H](C)O)[C@@H](C)O)C(C)C)C(C)C	Candida albicans	broth microdilution	58288, RPMI 1640-MOPS	48 h, 30 °C		MIC	4 µM
CCCCCCCCCCCCN(C)C(=O)CP(=O)(O)O	Streptococcus pneumoniae					MIC	> 200 µg/mL
N=C(N)NCCC[C@H](NC(=O)[C@H](Cc1c[nH]c2ccccc12)NC(=O)[C@H](CCCNC(=N)N)NC(=O)[C@H](Cc1c[nH]c2ccccc12)NC(=O)[C@H](Cc1c[nH]c2ccccc12)NC(=O)[C@H](Cc1c[nH]c2ccccc12)NC(=O)[C@H](CCCNC(=N)N)NC(=O)[C@H](Cc1c[nH]c2ccccc12)NC(=O)[C@@H](N)CCCNC(=N)N)C(N)=O	Candida albicans	broth microdilution	CGMCC 2.209, RPMI 1640-MOPS	48 h, 30 °C, with: FeCl3 4 µM		MIC	4 µM
CC(C)(C)OCC1NC(=O)C(C(=O)NC(C(=O)NC2C(=O)N3C2SC(C)(C)C3C(=O)O)c2ccccc2)=C1O (stereo not shown)	Escherichia coli	broth microdilution	Keio mutant JW5086-3	18 h, ferrienterobactin permease gene		MIC	25 µg/mL
